Measurements of several laboratories.
Lines come from different studies, so protocols differ.
Organism: Acinetobacter baumannii

SMILES	method	strain	time	temperature	notes	MIC
CC(C)(CN)CNCc1nc2ccccc2n1CCOc1ccccc1		ATCC 17961				32 µg/mL
Cc1cc(Nc2ccc(S(F)(F)(F)(F)F)cc2)n2ccnc2n1		HR2 clinical isolate				0.27 µg/mL
CN(C)c1ccc2nc3ccc(=[N+](C)C)cc-3sc2c1	broth microdilution	ATCC 19606, susceptible	18 h	37 °C	dark	> 128 µM
Cc1c(CN(C)C(=O)/C=C/c2cnc3c(c2)CC(NC(=O)OC(C)(C)C)C(=O)N3)oc2ccccc12 (stereo not drawn)	broth microdilution	W41979				> 32 µg/mL
C[C@@H](O)[C@H]1C(=O)N2C(C(=O)O)=C(S[C@@H]3CN[C@H](C(=O)N(C)C)C3)[C@H](C)[C@H]12	broth microdilution	ATCC 17978				1.3 µM
CN(C)[C@@H]1C(O)=C(C(N)=O)C(=O)[C@@]2(O)C(O)=C3C(=O)c4c(O)cccc4[C@@](C)(O)[C@H]3C[C@@H]12	broth microdilution	NCTC 13424	20 h		5% CO2	256 µg/mL
CC(=O)O[C@H]1C[C@@]2(C)[C@@H](C[C@@H](O)[C@H]3[C@@]4(C)CC[C@@H](O)[C@@H](C)[C@@H]4CC[C@@]32C)/C1=C(\CCC=C(C)C)C(=O)O	broth microdilution	ATCC 17978				160 µM
C[C@H]1COc2c(N3CCN(C)CC3)c(F)cc3c(=O)c(C(=O)O)cn1c23	agar dilution	ATCC 19606				0.25 µg/mL
C[C@@H](O)[C@H]1C(=O)N2C(C(=O)O)=C(S[C@@H]3CN[C@H](C(=O)N(C)C)C3)[C@H](C)[C@H]12		3A1				48 µg/mL
CN[C@@H]1[C@@H](O[C@H]2O[C@H](CO)[C@@H](N)[C@H](O)[C@H]2O)OC2C[C@@H](N)[C@@H](O[C@H]3[C@H](O)[C@@H](O)[C@H](N)C[C@@H]3N)OC2[C@@H]1O (stereo partly drawn)	broth microdilution	NCTC 13424	20 h		ambient air	8 µg/mL
CC1(C)S[C@@H]2[C@H](NC(=O)C(C(=O)O)c3ccccc3)C(=O)N2[C@H]1C(=O)O (stereo partly drawn)	broth microdilution	clinical isolate				> 200 µM
CC[C@H]1OC(=O)[C@H](C)[C@@H](O[C@H]2C[C@@](C)(OC)[C@@H](O)[C@H](C)O2)[C@H](C)[C@@H](O[C@@H]2O[C@H](C)C[C@H](N(C)C)[C@H]2O)[C@](C)(O)C[C@@H](C)CN(C)[C@H](C)[C@@H](O)[C@]1(C)O	broth microdilution	BNCC 194496				1 µg/mL
O=C(N[C@H](CO)[C@H](O)c1ccc([N+](=O)[O-])cc1)C(Cl)Cl	broth microdilution	NCTC 13424	20 h		ambient air	128 µg/mL
NC[C@H]1O[C@H](O[C@H]2[C@H](O)[C@@H](O[C@H]3O[C@H](CO)[C@@H](O)[C@H](N)[C@H]3O)[C@H](N)C[C@@H]2N)[C@H](N)C[C@@H]1O	broth microdilution	ATCC 17978				1.3 µM
CC1(C)S[C@@H]2[C@H](NC(=O)[C@H](N)c3ccccc3)C(=O)N2[C@H]1C(=O)O	broth microdilution		24 h	37 °C	clinical isolate	> 400 µM

Excerpt of the above:
SMILES	method	strain	time	temperature	notes	MIC
CC(C)(CN)CNCc1nc2ccccc2n1CCOc1ccccc1		ATCC 17961				32 µg/mL
